Measurements from different studies.
Each numbered part is a random draw from the data of one study; scales do not carry over between parts.

Sample 1
Target: RNA binding protein fox-1 homolog 2, RRM domain, GST-SBP tag (RBFOX2, Homo sapiens, UniProt O43251-10, residues 100-194)
Technique: RNA Bind-n-Seq
Form: RNA
Sample: in vitro
Tested at: 365 nM
Setting: natural RNA segment, single round, ends assumed
Baseline: no-protein control
Reading: higher = stronger binding
All sequences stand within: GGGAGUUCUACAGUCCGACGAUC … UGGAAUUCUCGGGUGCCAA
Construct (chain): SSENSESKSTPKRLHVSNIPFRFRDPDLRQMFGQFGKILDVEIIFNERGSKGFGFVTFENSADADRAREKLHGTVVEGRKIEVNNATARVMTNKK
For `GAUUCGAAGUUUGUAUUGUAUUCAUAGUUAAAGGGAAUCGGGUACUUUGCUUGUUGAAUAAUGCACUUUAAAACAAGGAACCGUAUCAGGCCAGCAUGGUGGCUCAUGCC`, “RBNS enrichment (R)” read 5.78.
`ACUCAAAAUCUGUUUAUUGGGUUACUGCCCCCAUAAAAAGUAAACAUGACUUUUAAGUAUUUUUUUAUAAACAGCUCAAUAUAAAACAUAGACAGUGUUUGAUUAUUUUC`: “RBNS enrichment (R)” 0.732.
`CCUCGUUUUCUCUGCGUGGUUCAGCUACUUUCCAUUUGGUAUUAUGCACUCAAACUUAACAUUUAUCUAUUAAAAUUGCCAUUUCAUUAAGCAAUUUUCACGCACAGUAG` — result for “RBNS enrichment (R)”: 0.531.
`UUGAAAGCAGUUGGAAACCAGCUAAUAGUUUCUUAAUCUCAGAUUUCGAGAUGAAUGUAAACUGUAUUCUUUUGAAAUGUGCAAGUGUUUGAUUCAUGCCAUUUGAUAAA`: “RBNS enrichment (R)” 0.642.
For `GUGAUGCUGUGUGAGAAGAUGGCUUUGCAGACCUCCUGCGCAGUCUCUUGCACUGUGUCCAUCACCACUUGGUGAGGACUCUUAAACUCUCUCCUCAUGUGCUUAUACCC`, “RBNS enrichment (R)” read 0.301.
For `AAAUACUCAGCUCCAUCAAGAGGAAUUGUGUCUAAGAGGAUACCCCUGUUAAUCUCCUUUUUUCUUGGAUUGGAGAGGAGAGAAUCUGGACAUGGCUUUGGACUUGGAGG`, “RBNS enrichment (R)” read 0.543.
Under “RBNS enrichment (R)”, `ACCCAAGGUGGGCGCCUUCCCCUCUUGUGCCCAGGGCGGUGGGCGUGGUGUCCACCCGCCCCUCCUGGUGCCCACGGUGGAUACUGCAUGAUGUGAACCUUGGUUUUGAA` is recorded as 18.8.
`CAUUAUCAAUAACCACCCGGGGACUCUCUGGCUUUCAGAUCCAUCUGCCUGAGACCCCAAGGUCCUCUCCUCCCUAGAGGGGAGGUGGAGCAGCAGUUGACUCCUGGUUC` — result for “RBNS enrichment (R)”: 0.357.

Sample 2
Target: Centromere-binding protein 1, full length, N-terminal tag (CBF1, Saccharomyces cerevisiae, UniProt P17106, residues 1-351)
UniProt P17106, sequence (whole entry, looked up): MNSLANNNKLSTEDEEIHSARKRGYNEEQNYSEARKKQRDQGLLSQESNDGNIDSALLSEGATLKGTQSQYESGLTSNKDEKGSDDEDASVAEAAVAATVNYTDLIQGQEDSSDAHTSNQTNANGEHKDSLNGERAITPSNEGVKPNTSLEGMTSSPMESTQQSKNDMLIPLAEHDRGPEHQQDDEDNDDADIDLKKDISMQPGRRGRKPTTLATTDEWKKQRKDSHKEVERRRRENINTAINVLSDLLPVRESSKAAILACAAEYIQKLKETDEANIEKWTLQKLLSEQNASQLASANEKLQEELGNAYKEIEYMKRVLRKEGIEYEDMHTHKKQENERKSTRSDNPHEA
Technique: protein-binding microarray
Form: double-stranded DNA, one strand shown
Sample: in vitro
Tested at: 0.8 µM
Setting: whole 60-bp probe, no competitor
Reading: higher = stronger binding
All sequences stand within: … GTCTTGATTCGCTTGACGCTGCTG
The fluorescence intensity of `GAATTTGGTTACCGTGACATCCTGCGAATCTCATAG` is reported as 953 a.u.
The fluorescence intensity of `CTATACGGACATAAGAACGTGCCGCCCATTCTGTTC` is reported as 658 a.u.
`CTAAGTGAAATACAACAGCTGAGTGCAGATAAGTTC` has a fluorescence intensity of 539 a.u.
For `CTACTAAATTAGTATGGCGTGTTGCATAGAAGGTTC`, the fluorescence intensity was 610 a.u.
With `CCTAACTACTATACAGGTGCGTGATAGCTTCGTACA` the fluorescence intensity was 693 a.u.
With `CTAACGTGACAGGTTTGTATCACGTGCTTCTTATTC` the fluorescence intensity was 20600 a.u.
With `CTATGAAGAAGAAATCATGTGCTGAGAGTTGCCTTC` the fluorescence intensity was 1150 a.u.
`CTAGGAACTAGACCCCACGTCAGCGGGCCTAGGTTC` has a fluorescence intensity of 470 a.u.

Sample 3
Target: Histone acetyltransferase KAT6A, winged helix 1, GST fusion (KAT6A, Homo sapiens, UniProt Q92794, residues 1-85)
Technique: protein binding microarray
Form: double-stranded DNA, one strand shown
Sample: in vitro
Tested at: not given
Setting: 8-mer, flanks averaged, mean of 2 arrays, mostly near background
Baseline: not given
Reading: higher = stronger binding
Target sequence (chain): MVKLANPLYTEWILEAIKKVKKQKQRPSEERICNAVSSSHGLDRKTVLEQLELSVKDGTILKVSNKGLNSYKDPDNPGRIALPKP
For `GAGAGCGC`, the E-score was 0.286.
With `CTTGAATC` the E-score was -0.204.
The E-score of `CGGAATCC` is reported as 0.138.
For `ACTTTCCA`, the E-score was -0.325.
`AGTAAATC` has an E-score of -0.151.
The E-score of `AGGCGGCG` is reported as 0.398.
With `GCATCCGA` the E-score was 0.12.
`CGAACTAC` has an E-score of 0.0186.

Single results of other studies
`PhoQ, residues 284 288 289 292 302 303 AEGLLW` gave a fold induction of 1.67 (PhoP, residues 12 14 15 18 19 NQGLL (Escherichia coli, UniProt P23836); Sort-seq, measured: YFP reporter; E. coli; PhoQ-PhoP variant library, together with: 10 µM Mg2+; baseline: high Mg2+ state, higher = stronger signaling).

Repeated from above (sample 3):
With `CTTGAATC` the E-score was -0.204.
The E-score of `CGGAATCC` is reported as 0.138.
For `ACTTTCCA`, the E-score was -0.325.
`AGTAAATC` has an E-score of -0.151.
